# Results pooled from the literature.
# Numbered parts are unrelated; each lists some results of a single study. Changes are numbered by the printed parent chain.

# Sample 1 — method: protein-binding microarray; form: double-stranded DNA, one strand shown; sample: in vitro; tested at: 2540 nM top; notes: 60-bp whole probe; together with: salmon DNA 0.4 mg/ml; baseline: random background probes; reading: higher = stronger binding; shared flanks, not repeated: GCCTAGCAC … GTCTTGATTCGCTTGACGCTGCTG
# Target: Interferon regulatory factor 3, full length, phosphomimetic (IRF3, Homo sapiens, UniProt Q14653, residues 1-427, S386D/S396D/S398D/S402D/T404D/S405D)
# UniProt Q14653, sequence (whole entry, unmodified, looked up): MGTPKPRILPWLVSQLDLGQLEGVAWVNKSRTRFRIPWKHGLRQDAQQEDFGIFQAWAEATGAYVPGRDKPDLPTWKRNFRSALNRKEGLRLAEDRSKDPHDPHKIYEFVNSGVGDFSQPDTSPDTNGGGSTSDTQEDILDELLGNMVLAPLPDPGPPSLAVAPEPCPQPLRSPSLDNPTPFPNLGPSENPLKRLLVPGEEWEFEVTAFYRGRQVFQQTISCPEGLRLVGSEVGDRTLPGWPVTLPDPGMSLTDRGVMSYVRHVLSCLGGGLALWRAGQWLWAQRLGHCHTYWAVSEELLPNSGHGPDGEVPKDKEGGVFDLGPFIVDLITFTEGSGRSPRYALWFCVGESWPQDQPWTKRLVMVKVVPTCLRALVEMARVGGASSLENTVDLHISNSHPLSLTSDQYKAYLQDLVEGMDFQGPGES
Sequence,fitted relative affinity [z-score]
GACGATTCCAGTTTCGACACGTGCTAG,2.92
TTAGGACTGGGAACTGGGTTAGTGCTA,-0.772
TACGATATCAGTTTCGAGACGTGCTAG,3.48
TCACATTTTAGTTTTCAACTGTGCTAG,2.16
GACGGTCTGGGACTGGGGACGTGCTAG,-0.82
GACGATATCAGTTTCGAGAGGTGCTAG,2.78
GACGGACTGGGTATCGTGACGTGCTAG,-0.523
TGTAGAGTAGCTTTCTGAGGGTGCTAG,-0.353
TTAGATTTCGGGTCTCGATTAGTGCTA,2.33
GGATGAGCAAGGGGGCCTCGGTGCTAG,-1.01
GACAGTTTCCTTTTCCTGACGTGCTAG,10.6
CGCTCCCTTTATTCCACATTGTGCTAG,2.55
GACGGATTCGGTCTCGGGACGTGCTAG,2.94
TTAAGCCCACTATCTAGCCCGTGCTAG,-0.422
TTAGGTATCCTTATACTTTAGTGCTAG,4.46
TTAGATTTCGGGTATCAATTAGTGCTA,1.57
TTAATGTGTTCTTGGATTCGGTGCTAG,0.149
GACGGACTGGACACTGGCGACGTGCTA,-0.712
TTTTTTTTCCTAATTGAACCGTGCTAG,3.64

# Sample 2 — method: protein binding microarray; form: double-stranded DNA, one strand shown; sample: in vitro; tested at: not given; baseline: not given; reading: higher = stronger binding
# Target: Histone acetyltransferase KAT6A, both winged helices, GST fusion (KAT6A, Homo sapiens, UniProt Q92794, residues 1-181)
# Notes: 8-mer, flanks averaged, mean of 2 arrays, mostly near background
# Construct (chain): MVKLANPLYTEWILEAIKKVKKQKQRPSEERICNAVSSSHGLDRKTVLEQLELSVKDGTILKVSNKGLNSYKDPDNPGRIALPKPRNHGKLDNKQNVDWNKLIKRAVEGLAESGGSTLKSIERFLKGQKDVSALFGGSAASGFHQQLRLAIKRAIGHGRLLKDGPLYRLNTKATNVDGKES
Sequence,E-score
CTAGCTAG,-0.0313
CACAGAAG,-0.106
CCGAGTCA,-0.0523
AAGTCGCG,0.212
CGGCTAGA,0.157
ACTTCAAT,-0.0162
ACATACGT,-0.0485
CCGTCCAA,0.108
AAGCTATG,-0.066
CTGGCGAA,-0.185
ATAGGGGC,-0.163
ACATTATG,0.074
GATATTAA,0.0417
GCCGGCGC,0.386
TAGCTTGA,-0.106
CACTACAA,-0.116
ACCACTTC,-0.209
CGTGGGAA,-0.00713
CCTCAACC,-0.148
TCTATCCA,-0.058
AATCAAAG,0.0334
CCAAGAAA,-0.184
CATCGTCG,0.081
CAAAAGCA,-0.115
AGAACCCG,0.149

# Sample 3 — method: RNA Bind-n-Seq; form: RNA; sample: in vitro; tested at: 365 nM; baseline: no-protein control; reading: higher = stronger binding
# Target: RNA binding protein fox-1 homolog 2, RRM domain, GST-SBP tag (RBFOX2, Homo sapiens, UniProt O43251-10, residues 100-194)
# Notes: natural RNA segment, single round, ends assumed
# Shared flanks, not repeated: GGGAGUUCUACAGUCCGACGAUC … UGGAAUUCUCGGGUGCCAA
# Construct (chain): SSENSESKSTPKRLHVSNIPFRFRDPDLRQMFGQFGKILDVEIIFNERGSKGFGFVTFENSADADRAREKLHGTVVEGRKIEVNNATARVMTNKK
Sequence,RBNS enrichment (R)
UACCCCAAGCUACAGUGGGGGCCCAUGGCCCCAGCUUGCUAGGUCACCCUCCACCCCUCCUCCAGCGCCUGCUCUCUGCAACCUGACUUCCACCUCUAUCUCUCUUUCUC,1.66
CCAGUAUUCUCACUGUCUUCUAUUUCUAGUAGGGAGCUGGAGUCAAAUAACUUGUAUAGAUUUUGGUUACCUACCCUUAAGUUCCCUCCCGUAGAUUAGCCUUUAGAAGU,0.482
CCAGGUCCCAGUCCCGGGUUGCAGGUGUUGACUGCCACCAAGGUUUGAUACGGGAUCCAAAUUCAGGCCCCCAUCUCGUCCAUCGAGCACUUUGUGAACUUGAACCCACG,0.327
UGUGAUAGACAAUUUCAGCUAGCCACAUAUUGUAUUAUGAAAUUCAUAAAGAUUUUCAAUCAUUCAAUUUCAUUUAUCAACUGAAAUUUUGUUUAGUAUGUGAAUUUUUU,0.736
UCACGGGAAUGGAGUCCAUGCUAGAAAGAGCUCAGUGUUGGGCUGGGUUUGCCAGUAGAACACUGCGUUCCAGUCACCCCGGUCUUGCCAGAAGAAACCAGCACCUCUUU,0.589
ACAGAGCCUGAAGCCCACACUCCGGAAAUGUCUCCUUCCAGAGAAAUGUUGGAGCCGAUCCAGGGUUUGAGAGAGCUACAAAGACAUCGGGGGCUGGAGCCAUGCCUUGG,0.521
UGCCAUCACGCAUUUAAGACAGGAUUGGACUGUCAUCUCGCAUCAGAAACCGUUACAAUUUCCUGUUGCUGUACAGCCUCUUCUGAACUCUCUUCUCUCUUUGGUGUUCA,0.852
GGUGGUGGUGACGUGAGGGCUGUGAAGGAUCCAGAGACAAGACUUAGAUGUUUCGUUCAUUCACUCACUCAUUCAGUUACUCCUAAGACUUUUCAGUUUCAUAAGGAAGA,0.467

# Sample 4 — target: CCND3, cyclin fold, Cln2 fusion (human); method: yeast growth competition, sequencing; sample: yeast; notes: weak parent motif; baseline: not given; reading: higher = stronger binding
# Starting sequence: WEE1 docking peptide (human); HKTFRKLRLFDTP; partner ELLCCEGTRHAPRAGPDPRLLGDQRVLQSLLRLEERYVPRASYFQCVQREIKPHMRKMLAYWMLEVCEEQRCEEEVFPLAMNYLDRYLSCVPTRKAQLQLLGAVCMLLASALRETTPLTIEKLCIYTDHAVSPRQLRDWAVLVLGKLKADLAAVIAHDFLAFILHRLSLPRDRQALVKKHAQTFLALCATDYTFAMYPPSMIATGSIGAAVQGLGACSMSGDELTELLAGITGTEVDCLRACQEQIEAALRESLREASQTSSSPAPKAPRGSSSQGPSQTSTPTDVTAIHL
Change,normalised enrichment score
L7F,0.125
R5I,0.122
L7R,0.102
K6E,0.131
P13V,0.184
T12I,0.211
D11F,0.187
L7C,0.244
K6P,0.153
L9R,0.143
K6V,0.0285
F10D,0.0688
T12L,0.11
H1Y,0.0983
T12V,0.176
K2N,0.174
R5D,0.034
L9E,0.233
T12G,0.26
T3N,0.0322
D11G,-0.00551
R5L,0.065
D11Y,0.0924
F10Q,0.0149
R5A L7A,0.0528

# For quick reference, copied from above (sample 1):
Sequence,fitted relative affinity [z-score]
GACGGTCTGGGACTGGGGACGTGCTAG,-0.82
GACGATATCAGTTTCGAGAGGTGCTAG,2.78
GACGGACTGGGTATCGTGACGTGCTAG,-0.523
TGTAGAGTAGCTTTCTGAGGGTGCTAG,-0.353
TTAGATTTCGGGTCTCGATTAGTGCTA,2.33
GGATGAGCAAGGGGGCCTCGGTGCTAG,-1.01
GACAGTTTCCTTTTCCTGACGTGCTAG,10.6
CGCTCCCTTTATTCCACATTGTGCTAG,2.55
GACGGATTCGGTCTCGGGACGTGCTAG,2.94
